Assay results pooled from the literature.
Every numbered part comes from another study and shows a few of its results, in no order. Positions count from the first letter of the parent shown.

Sample 1
Target: RNA binding protein fox-1 homolog 2, RRM domain, GST-SBP tag (RBFOX2, Homo sapiens, UniProt O43251-10, residues 100-194)
Technique: RNA Bind-n-Seq
Molecule type: RNA
Medium: in vitro
Tested at: 365 nM
Notes: natural RNA segment, single round, ends assumed
Relative to: no-protein control
Direction: higher = stronger binding
Quantity: RBNS enrichment (R)
All sequences stand within: GGGAGUUCUACAGUCCGACGAUC … UGGAAUUCUCGGGUGCCAA
Construct (chain): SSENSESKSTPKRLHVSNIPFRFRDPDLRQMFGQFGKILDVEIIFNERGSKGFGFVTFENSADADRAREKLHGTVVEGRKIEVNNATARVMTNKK
CUGCACCAGGCUGCUGCUUUGUUGUCUGUCUGCUGCCCGUCCCUCCCUGCAGGCCGCAUCAUGGUGGUGUCUAUUGCCGGGGUGGCCACAGGCUGGAUCCGAGUGUCCCC: 0.21
AAGUCUGCUCAGCUGCAUGGUGGAAAGGACUGUGUUCUUUUUUUUCUUGCACACAAUUCCUUUGAAAUUACAUUGACAGCCAGGAGACAAAGGAGAGAACUGUUAACUAG: 0.736
UUUUGGUAGUUGUUGUUACCCACGCCAUUUUACGUCUCCUUCACUGAAGGGCUAGAGUUUUAACUUUUAAUUUUUUAUAUUUAAAUGUAGACUUUUGACACUUUUAAAAA: 0.641
CUGUCAUCCACCUUGUACUAGAAAGUUUUAGCACUGAAUUAUUCCUUCUUCAUUGUUGUUUGUAUUUAUGAAAUUCUGAAAUUAUGGGGAAUCAGUGUACUGAUUAUGUU: 1.39
UCUGUCCCCUUUCAUGGCUGUGCAGCCGUCCCGCUGGAGUGGCCAUGUCCCUUGUGCAUUGAGUGCAUCCCCGCUGGUGACUAAGCUCGCAGCAAGCGGCUACCCCCCGA: 0.517
UUGGGAAUAGAAUUUAAAAUUGGAUUAAGAUUUUAUUUCCAGUUUUUUUUAUUUAUUUAUUUUUUUUUUUGAGACGGAGUCUUGCUCUGUCGCCCAGGCUGAAGUGCGGU: 1.05
AGGCUCAAGAUGCAUUCCUUGUGUAGGUCGGAGAGAGCACUUCUAAUGUUAAGUGGGGUACAGAUCAGCUGCCCCCCCACGUAGCCUGGACAUCGUCUUAUCCCCAUAAU: 2.33
CGUAACCCUUUCAAUUGAACUGCCUGGAUUUUAUAUAAAGUUACUAAACGAUACCUUGUUCUUGGAACUGCAUGCUGCCAAGUGCCAUUCGUACUGAGCAUCCUCAUUUC: 25.8

Sample 2
Target: Histone acetyltransferase KAT6A, both winged helices, GST fusion (KAT6A, Homo sapiens, UniProt Q92794, residues 1-181)
Technique: protein binding microarray
Molecule type: double-stranded DNA, one strand shown
Medium: in vitro
Tested at: not given
Notes: 8-mer, flanks averaged, mean of 2 arrays, mostly near background
Relative to: not given
Direction: higher = stronger binding
Quantity: E-score
Target sequence (chain): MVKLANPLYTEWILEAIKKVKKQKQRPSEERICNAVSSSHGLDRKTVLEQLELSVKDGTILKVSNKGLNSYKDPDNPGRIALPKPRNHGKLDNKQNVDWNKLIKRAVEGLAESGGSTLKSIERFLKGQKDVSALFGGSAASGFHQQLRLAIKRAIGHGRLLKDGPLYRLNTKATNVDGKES
AGCCTCGG: -0.0204
AATGGACA: -0.156
AAAGCCTA: -0.168
AAACTTAA: -0.0306
GGCAATAC: 0.0871
CTACCTGC: 0.086
ACTTGGAC: 0.0192
CTGTAAGC: -0.0643
GGGGGGGA: -0.141
AAGTCATC: -0.0811
AGCCGCCT: 0.202
AACGTCAT: 0.0815
ACTTTAAT: -0.197
CCGGTAAA: 0.278
AGTACCCG: 0.122
GATCTCAA: 0.0636
TACAAAAA: 0.0767
CCCGTAGA: 0.18
TATACCAA: -0.0771
ATATATCG: -0.0407
AGTACTAC: -0.133
AGGAAAGG: -0.192
GGCCAGGA: -0.0876
GAATGGCA: 0.0317
TCAATTCA: -0.0719

Sample 3
Target: CCND3, cyclin fold, Cln2 fusion (human)
Technique: yeast growth competition, sequencing
Medium: yeast
Notes: weak parent motif
Relative to: not given
Direction: higher = stronger binding
Quantity: normalised enrichment score
Starting sequence: SAMHD1 docking peptide (human); ASKSRVQLFKDDP; partner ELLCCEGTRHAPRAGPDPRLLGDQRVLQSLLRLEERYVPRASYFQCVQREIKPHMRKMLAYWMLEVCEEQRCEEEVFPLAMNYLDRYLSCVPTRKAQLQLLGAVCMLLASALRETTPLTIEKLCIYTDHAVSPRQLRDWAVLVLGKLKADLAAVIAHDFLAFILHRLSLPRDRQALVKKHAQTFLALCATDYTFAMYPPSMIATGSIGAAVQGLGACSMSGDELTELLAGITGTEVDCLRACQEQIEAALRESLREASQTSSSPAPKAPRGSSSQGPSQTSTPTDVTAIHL
D11R: -0.198
Q7W: -0.132
R5C: 0.385
Q7K: 0.16
D12T: 0.0571
S2D: 0.17
S4A: 0.165
F9C: 0.347
Q7V: 0.329
L8Y: 0.237
S4Q: 0.0701
V6I: -0.396
R5M: -0.258
R5H: 0.0524
Q7S: -0.171
V6K: 0.387
S4F: 0.13
R5E: 0.148
S4W: -0.386
R5S: -0.112
K10R: 0.0873
S2N: 0.164

Sample 4
Target: Interferon regulatory factor 5, full length, phosphomimetic (IRF5, Homo sapiens, UniProt Q13568-2, residues 1-514, S451D/S453D/S456D/S462D)
Technique: protein-binding microarray
Molecule type: double-stranded DNA, one strand shown
Medium: in vitro
Tested at: 940 nM top
Notes: 60-bp whole probe
Together with: salmon DNA 0.4 mg/ml
Relative to: random background probes
Direction: higher = stronger binding
Quantity: fitted relative affinity
All sequences stand within: GCCTAGCAC … GTCTTGATTCGCTTGACGCTGCTG
ACTTCTCCATTTTTCTAGTCGTGCTAG: 1.32 z-score
TTAGGACTGGGGACTCGGTTAGTGCTA: -0.318 z-score
TTAGGACTGGACTATCGGTTGGTGCTA: -0.297 z-score
TTAGGACTGCTCATCCTTTAGTGCTAG: -0.0989 z-score
TTAGGCCTGGACTATCGGTTAGTGCTA: -0.322 z-score
TTTTTTTTTTTTTTGGAATGGTGCTAG: 0.817 z-score
GACGGTTCCCTCTTCCTGACGTGCTAG: 0.766 z-score
TTAGGACAGGGGTTTCGGTTAGTGCTA: 5.67 z-score
GACGGACTGGGACAGGGGACGTGCTAG: -0.636 z-score
TCAGCTTACAATATAAAACTGTGCTAG: 0.266 z-score
TTAGGTAACGGACTGGGTTAGTGCTAG: 0.106 z-score
TCAACTATTGCTTCCTCACTGTGCTAG: 0.561 z-score
GACGAACTGAGTATCGGGACGTGCTAG: 1.03 z-score
CTCCTTTTAATTTTTAACGAGTGCTAG: 0.583 z-score
TTAGGACTGGGGTATCCGTTAGTGCTA: -0.13 z-score
GACGATTTCGGGACTGGTGACGTGCTA: -0.0423 z-score
ATAGAACTGAGTCTCGATTAGTGCTAG: 2.54 z-score

Sample 5
Target: CREB5, bZIP domain (human)
Technique: DHFR protein complementation
Medium: yeast
Notes: single substitutions, most at no-binding floor
Relative to: wild-type JUN-FOS pair
Direction: higher = stronger binding
Quantity: binding fitness
Starting sequence: JUN, bZIP domain (human); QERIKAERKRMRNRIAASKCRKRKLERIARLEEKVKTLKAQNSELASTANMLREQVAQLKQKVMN; partner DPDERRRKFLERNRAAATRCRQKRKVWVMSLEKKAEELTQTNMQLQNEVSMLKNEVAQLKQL
S43Q: -0.135 natural log
R53G: -1.28 natural log
R30Y: -0.273 natural log
R30L: -0.183 natural log
K39D: -0.413 natural log
S47Q: -0.176 natural log
K34R: -0.169 natural log
R30P: -0.778 natural log
L45A: -1.17 natural log
E33S: -0.517 natural log
L52K: -1.36 natural log
S43H: -0.26 natural log
R53M: -1.1 natural log
K39L: -0.372 natural log
K36W: -0.744 natural log
K36A: -0.112 natural log
E33N: -0.463 natural log
L31K: -1.28 natural log
L31P: -1.41 natural log
L52G: -1.4 natural log
A40Q: -0.0578 natural log
K36C: -0.333 natural log
V35Q: -1.28 natural log
L45I: -1.1 natural log

A few entries again (sample 3):
D11R: -0.198
Q7W: -0.132
R5C: 0.385
Q7K: 0.16
D12T: 0.0571
S2D: 0.17
S4A: 0.165
F9C: 0.347
Q7V: 0.329
L8Y: 0.237
S4Q: 0.0701
V6I: -0.396
